Results of several laboratories.
Compare with care: the assays were run in different laboratories. ± marks the error that the study gave.

Structure (SMILES) | assay | test system | setting | how to read | endpoint | result
Cn1cc(-c2ccc(S(=O)(=O)[C@@H]3C[C@@H](C(=O)NC4(C#N)CC4)N(C(=O)C4(C(F)(F)F)CC4)C3)c(C(F)(F)F)c2)cn1 | – | FeSSIF | 0.08 mg/mL, up to 60 min, 37 °C | – | fraction dissolved | < 0.4
CCCC1O[C@@H]2C[C@H]3[C@@H]4CCC5=CC(=O)C=C[C@]5(C)[C@H]4[C@@H](O)C[C@]3(C)[C@]2(C(=O)CO)O1 (stereo partly drawn) | – | human hepatocytes | – | – | fraction unbound in incubation | 0.5
CNCc1cc(-c2ccccc2F)n(S(=O)(=O)c2cccnc2)c1 | – | human plasma | – | – | fraction unbound in plasma | 0.135
CN(C(=O)C(C)(C)c1cc(C(F)(F)F)cc(C(F)(F)F)c1)c1cnc(N2C[C@H]3COCCN3C[C@H]2CO)cc1-c1ccc(F)cc1[14CH3] | – | human liver microsomes | – | – | fraction unbound in microsomes | 0.519
CN(C)C1(CNC(=O)c2ccc3c(c2)CCN3C(=O)c2ccccc2)CCOCC1 | equilibrium dialysis | mouse brain homogenate | pH 7.4 | – | fraction bound | 55.7%
C[C@H]1CN(C(=O)CC#N)[C@]12CCN(c1ncnc3[nH]ccc13)C2 | – | healthy Japanese men, urine | oral, 50 mg, single dose | relative to: dose | fraction excreted unchanged | 74.9%
Cl.N=C(CC(O)c1cc2c(F)cc(F)cc2c2cc(C(F)(F)F)ccc12)Nc1ccc(Br)cc1 (stereo not drawn) | equilibrium dialysis | human liver microsomes 0.5 mg/mL | 1 µM, 24 h | – | fraction bound | 0.993
C=C1C[C@@H]2[C@H](CC[C@]3(C)C(=O)CC[C@@H]23)[C@@]2(C)C=CC(=O)C=C12 | – | postmenopausal women, serum | oral, 25 mg daily, 1 year, UGT2B17 and GSTA1 genotypes | – | fraction of total metabolites | 0.19 ± 0.1
N#C[C@@]1(c2ccc3c(N)ncnn23)O[C@H](CO)[C@@H](O)[C@H]1O | – | mouse plasma | 10 µM | – | fraction unbound | 0.915
